Measured values pooled from the literature.
Protocols differ between the studies behind these lines. “And” joins repeats or separate records; there may be more than shown. ± gives the spread as reported.
Chain of UniProt P08311 (whole entry, looked up): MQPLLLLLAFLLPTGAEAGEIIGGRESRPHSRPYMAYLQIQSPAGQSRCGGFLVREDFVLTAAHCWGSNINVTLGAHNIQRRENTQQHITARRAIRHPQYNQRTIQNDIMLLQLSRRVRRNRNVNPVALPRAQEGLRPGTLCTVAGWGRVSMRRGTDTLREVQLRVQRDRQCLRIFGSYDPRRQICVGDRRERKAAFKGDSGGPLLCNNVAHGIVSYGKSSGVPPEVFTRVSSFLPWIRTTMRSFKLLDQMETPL
Chain of UniProt P04818 (whole entry, looked up): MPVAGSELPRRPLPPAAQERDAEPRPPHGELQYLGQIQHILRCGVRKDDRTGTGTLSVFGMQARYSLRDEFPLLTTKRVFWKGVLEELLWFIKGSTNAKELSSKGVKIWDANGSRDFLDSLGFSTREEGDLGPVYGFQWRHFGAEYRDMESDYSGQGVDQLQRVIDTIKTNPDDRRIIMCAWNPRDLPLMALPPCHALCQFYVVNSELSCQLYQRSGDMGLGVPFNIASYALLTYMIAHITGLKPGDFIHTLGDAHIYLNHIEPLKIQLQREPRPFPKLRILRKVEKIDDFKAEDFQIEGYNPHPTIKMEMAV
Chain of UniProt P47713 (whole entry, looked up): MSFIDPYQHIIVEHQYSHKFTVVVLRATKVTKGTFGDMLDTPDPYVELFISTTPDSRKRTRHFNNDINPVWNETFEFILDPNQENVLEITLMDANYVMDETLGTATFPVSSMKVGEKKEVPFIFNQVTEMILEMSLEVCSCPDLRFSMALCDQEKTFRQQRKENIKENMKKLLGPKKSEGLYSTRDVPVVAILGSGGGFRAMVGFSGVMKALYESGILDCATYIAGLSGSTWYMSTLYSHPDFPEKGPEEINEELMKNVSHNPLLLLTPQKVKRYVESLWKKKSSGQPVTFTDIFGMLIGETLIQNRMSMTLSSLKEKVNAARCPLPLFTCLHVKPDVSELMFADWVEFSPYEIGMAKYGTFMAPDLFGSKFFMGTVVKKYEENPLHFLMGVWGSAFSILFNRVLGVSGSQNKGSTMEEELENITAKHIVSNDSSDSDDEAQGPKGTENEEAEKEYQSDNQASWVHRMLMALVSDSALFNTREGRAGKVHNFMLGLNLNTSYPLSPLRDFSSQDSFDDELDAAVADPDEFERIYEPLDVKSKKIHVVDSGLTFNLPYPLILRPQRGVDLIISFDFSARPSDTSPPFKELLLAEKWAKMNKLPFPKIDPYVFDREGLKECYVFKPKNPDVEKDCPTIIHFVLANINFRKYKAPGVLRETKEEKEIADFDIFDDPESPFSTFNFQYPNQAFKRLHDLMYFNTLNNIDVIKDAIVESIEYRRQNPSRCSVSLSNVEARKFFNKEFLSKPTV
Chain of UniProt P28074 (whole entry, looked up): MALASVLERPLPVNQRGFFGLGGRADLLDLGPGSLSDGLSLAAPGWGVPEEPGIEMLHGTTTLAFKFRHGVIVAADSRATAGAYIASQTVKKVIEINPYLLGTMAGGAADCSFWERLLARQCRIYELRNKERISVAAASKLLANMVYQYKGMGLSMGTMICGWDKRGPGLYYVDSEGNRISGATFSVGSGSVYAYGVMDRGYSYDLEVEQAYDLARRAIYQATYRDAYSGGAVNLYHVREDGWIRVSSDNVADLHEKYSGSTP
Chain of UniProt Q00194 (whole entry, looked up): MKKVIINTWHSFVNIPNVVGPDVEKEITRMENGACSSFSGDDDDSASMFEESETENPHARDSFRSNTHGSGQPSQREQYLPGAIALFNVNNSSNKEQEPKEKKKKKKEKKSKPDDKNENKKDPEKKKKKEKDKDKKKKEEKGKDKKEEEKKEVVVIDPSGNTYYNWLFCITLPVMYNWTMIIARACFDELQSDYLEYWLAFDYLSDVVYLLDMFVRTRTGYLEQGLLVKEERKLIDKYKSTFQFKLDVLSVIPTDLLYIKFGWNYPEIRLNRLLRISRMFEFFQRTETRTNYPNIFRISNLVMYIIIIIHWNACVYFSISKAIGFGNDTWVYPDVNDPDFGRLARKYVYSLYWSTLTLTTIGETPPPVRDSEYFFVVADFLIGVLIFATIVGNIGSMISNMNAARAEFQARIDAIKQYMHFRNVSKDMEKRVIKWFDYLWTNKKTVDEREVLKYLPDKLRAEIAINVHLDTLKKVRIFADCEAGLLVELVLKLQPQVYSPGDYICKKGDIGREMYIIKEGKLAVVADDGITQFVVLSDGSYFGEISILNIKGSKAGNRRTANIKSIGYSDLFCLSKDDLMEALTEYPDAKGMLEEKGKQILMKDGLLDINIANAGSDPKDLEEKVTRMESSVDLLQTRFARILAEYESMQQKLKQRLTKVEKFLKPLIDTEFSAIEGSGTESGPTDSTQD
Chain of UniProt Q007T0 (whole entry, looked up): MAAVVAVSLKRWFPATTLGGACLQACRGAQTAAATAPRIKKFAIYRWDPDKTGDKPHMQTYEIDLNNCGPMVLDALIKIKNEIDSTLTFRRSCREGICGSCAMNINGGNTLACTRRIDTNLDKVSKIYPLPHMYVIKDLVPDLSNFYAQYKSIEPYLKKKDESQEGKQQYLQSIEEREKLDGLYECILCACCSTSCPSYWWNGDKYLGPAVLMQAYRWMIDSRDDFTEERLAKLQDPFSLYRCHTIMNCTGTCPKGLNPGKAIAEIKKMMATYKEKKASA
Chain of UniProt P01024 (whole entry, looked up): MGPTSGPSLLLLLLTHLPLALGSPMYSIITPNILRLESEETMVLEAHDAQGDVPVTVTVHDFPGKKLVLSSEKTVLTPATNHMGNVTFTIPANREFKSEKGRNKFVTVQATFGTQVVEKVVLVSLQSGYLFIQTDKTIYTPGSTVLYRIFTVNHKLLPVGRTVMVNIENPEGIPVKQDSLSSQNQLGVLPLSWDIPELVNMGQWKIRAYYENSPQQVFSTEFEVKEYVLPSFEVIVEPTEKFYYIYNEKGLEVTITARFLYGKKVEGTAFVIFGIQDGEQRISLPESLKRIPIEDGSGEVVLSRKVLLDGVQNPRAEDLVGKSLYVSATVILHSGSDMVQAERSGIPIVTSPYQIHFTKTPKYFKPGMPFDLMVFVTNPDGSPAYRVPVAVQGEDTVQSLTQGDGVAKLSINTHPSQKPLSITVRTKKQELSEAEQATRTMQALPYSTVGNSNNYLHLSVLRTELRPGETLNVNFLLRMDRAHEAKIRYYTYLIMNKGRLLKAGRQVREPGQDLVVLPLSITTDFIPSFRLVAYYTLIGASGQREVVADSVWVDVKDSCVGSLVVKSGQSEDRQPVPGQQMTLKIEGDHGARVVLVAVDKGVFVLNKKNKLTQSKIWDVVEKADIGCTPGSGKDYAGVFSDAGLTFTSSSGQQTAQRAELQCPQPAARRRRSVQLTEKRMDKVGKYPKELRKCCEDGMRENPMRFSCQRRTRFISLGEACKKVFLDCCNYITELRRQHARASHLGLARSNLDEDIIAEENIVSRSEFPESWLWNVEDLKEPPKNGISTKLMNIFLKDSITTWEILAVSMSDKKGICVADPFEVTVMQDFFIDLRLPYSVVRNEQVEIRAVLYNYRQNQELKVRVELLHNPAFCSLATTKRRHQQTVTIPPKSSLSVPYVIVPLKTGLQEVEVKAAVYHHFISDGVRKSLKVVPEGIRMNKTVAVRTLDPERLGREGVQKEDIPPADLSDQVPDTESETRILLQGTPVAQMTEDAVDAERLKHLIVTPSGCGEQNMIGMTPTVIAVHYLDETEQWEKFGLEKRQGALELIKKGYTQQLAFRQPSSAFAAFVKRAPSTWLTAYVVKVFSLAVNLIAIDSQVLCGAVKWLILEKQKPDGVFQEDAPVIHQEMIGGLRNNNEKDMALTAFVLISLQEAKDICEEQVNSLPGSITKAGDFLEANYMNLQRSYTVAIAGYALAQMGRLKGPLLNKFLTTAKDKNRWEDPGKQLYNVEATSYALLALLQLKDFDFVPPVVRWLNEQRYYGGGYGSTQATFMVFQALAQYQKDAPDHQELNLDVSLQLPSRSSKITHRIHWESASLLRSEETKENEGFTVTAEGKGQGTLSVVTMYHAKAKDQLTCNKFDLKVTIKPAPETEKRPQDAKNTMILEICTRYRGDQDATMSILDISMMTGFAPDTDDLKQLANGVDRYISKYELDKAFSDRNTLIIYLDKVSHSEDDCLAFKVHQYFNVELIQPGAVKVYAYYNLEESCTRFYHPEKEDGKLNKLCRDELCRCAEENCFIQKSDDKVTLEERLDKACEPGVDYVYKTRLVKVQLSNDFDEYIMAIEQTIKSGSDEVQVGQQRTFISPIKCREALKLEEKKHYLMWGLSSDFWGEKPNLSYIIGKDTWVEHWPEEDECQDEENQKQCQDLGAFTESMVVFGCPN
Chain of UniProt Q0QF01 (whole entry, looked up): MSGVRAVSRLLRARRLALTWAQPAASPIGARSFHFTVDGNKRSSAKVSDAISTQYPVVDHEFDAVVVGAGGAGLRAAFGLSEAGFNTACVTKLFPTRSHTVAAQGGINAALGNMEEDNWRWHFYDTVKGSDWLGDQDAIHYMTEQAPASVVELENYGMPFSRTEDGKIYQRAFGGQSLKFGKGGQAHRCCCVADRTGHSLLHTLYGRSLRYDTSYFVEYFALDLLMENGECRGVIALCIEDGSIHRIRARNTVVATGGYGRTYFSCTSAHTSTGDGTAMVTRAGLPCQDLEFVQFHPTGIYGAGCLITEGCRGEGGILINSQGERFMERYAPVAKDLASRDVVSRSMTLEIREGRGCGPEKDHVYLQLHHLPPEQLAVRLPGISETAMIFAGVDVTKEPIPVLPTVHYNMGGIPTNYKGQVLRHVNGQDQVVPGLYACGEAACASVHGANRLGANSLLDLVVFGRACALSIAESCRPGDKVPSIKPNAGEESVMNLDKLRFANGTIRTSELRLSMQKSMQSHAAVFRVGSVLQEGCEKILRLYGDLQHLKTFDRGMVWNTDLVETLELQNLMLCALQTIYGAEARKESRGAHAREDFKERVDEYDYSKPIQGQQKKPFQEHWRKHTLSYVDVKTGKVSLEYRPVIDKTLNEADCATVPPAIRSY
Chain of UniProt Q05097 (whole entry, looked up): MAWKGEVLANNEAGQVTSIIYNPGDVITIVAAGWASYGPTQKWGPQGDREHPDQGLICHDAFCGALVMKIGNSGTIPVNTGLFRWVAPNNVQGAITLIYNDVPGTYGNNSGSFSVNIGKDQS

| Structure (SMILES) | target | assay | system | conditions | IC50 |
| --- | --- | --- | --- | --- | --- |
| CC(C)[C@H](NC(=O)c1ccc2ccccc2n1)C(=O)N[C@@H](CC(=O)O)C(=O)N[C@H](C(=O)N[C@@H](C)C(=O)NC(CC(=O)O)C(=O)COc1c(F)cccc1F)C(C)C (some centres unmarked) | Caspase-2 (Homo sapiens, UniProt P42575) | enzyme activity, inhibitor, absorbance |  |  | ~7.4 nM |
| O=c1[nH]cc(S(=O)(=O)Nc2cccc(-c3nnc(-c4ccc(F)cc4)o3)c2)c(=O)[nH]1 | Thymidylate synthase (TYMS, Homo sapiens, UniProt P04818) | enzyme activity, inhibitor, absorbance |  |  | 5610 nM |
| O=C(Nc1ccc(C(=O)Nc2ccc(C(=O)Nc3ccc(S(=O)(=O)O)c4cc(S(=O)(=O)O)cc(S(=O)(=O)O)c34)cc2)cc1)Nc1ccc(C(=O)Nc2ccc(C(=O)Nc3ccc(S(=O)(=O)O)c4cc(S(=O)(=O)O)cc(S(=O)(=O)O)c34)cc2)cc1 | Cathepsin G (CTSG, Homo sapiens, UniProt P08311) | enzyme activity, inhibitor, absorbance |  | pH 7.4 | ~570 nM and 570 nM |
| C=CC1(C)CCC2C(=CC3OC(=O)C4(C)C3C23CCC4(O)OC3)C1 (centres unmarked) | Saccharomyces cerevisiae alpha-glucosidase | enzyme activity, inhibitor |  | added: pNPG substrate | 612.03 ± 0.39 µg/mL |
| COc1cc(OC)cc(-c2nc3ccc(C(=O)NCCCN4CCN(c5cccc(C)c5C)CC4)cc3n2C2CCC2)c1 | Activin receptor type-1-like (ACVRL1, Homo sapiens, UniProt P37023) | target engagement in cells, BRET |  |  | > 30000 nM |
| CC(C)[C@@H]1NC(=O)[C@@H](NC(=O)[C@@H](N)CCC(N)=O)CSSC[C@@H](C(=O)N[C@@H](Cc2c[nH]c3ccccc23)C(N)=O)NC(=O)[C@H](CCC(N)=O)NC(=O)[C@H](CC(N)=O)NC(=O)[C@H](CCC(N)=O)NC(=O)CNC(=O)[C@H](Cc2c[nH]c3ccccc23)NC(=O)[C@H](CC(=O)O)NC(=O)[C@H](CCC(N)=O)NC(=O)[C@H](Cc2c[nH]c3ccccc23)NC1=O | Complement C3 (Homo sapiens, UniProt P01024) | C3b formation, ELISA | normal human serum | added: LPS-coated plate | 1980 nM |
| COc1ccc(Oc2ccc(S(=O)(=O)Nc3ccc4c(c3)N(C)C(=O)C4)cc2)cc1 | Cytosolic phospholipase A2 (Mus musculus, UniProt P47713) | arachidonic acid release | BV-2 | added: A23187 | 20 nM |
| C=C(NC(=O)C(=C)NC(=O)c1csc(C2=NC3c4csc(n4)C4NC(=O)c5csc(n5)C(C(C)(O)C(C)O)NC(=O)C5CSC(=N5)C(=CC)NC(=O)C(C(C)O)NC(=O)c5csc(n5)C3(CC2)NC(=O)C(CC(C)C)NC(=O)C(=C)NC(=O)C(C)NC(=O)C(C(C)CC)NC2C=Cc3c(C(C)O)cc(nc3C2O)C(=O)OC4C)n1)C(N)=O (centres unmarked) | Proteasome Macropain subunit MB1 (PSMB5, Homo sapiens, UniProt P28074) | chymotrypsin-like activity, inhibitor | purified 20S proteasome | 15 min preincubation, 37 °C, added: Suc-Leu-Leu-Val-Tyr-AMC substrate | 530 ± 20 nM |
| O=C(Nc1ccccc1Nc1ccccc1)c1nccnc1Cl | Succinate dehydrogenase complex (Sus scrofa, UniProt A5GZW8+D0VWV4+Q007T0+Q0QF01) | enzyme activity, inhibitor, double-antibody sandwich ELISA |  |  | 11200 nM |
| N[C@@H](Cc1c[nH]c2ccc(OCc3ccccc3-c3ccccc3)cc12)C(=O)O | Large neutral amino acids transporter small subunit 1 (SLC7A5, Homo sapiens, UniProt Q01650) | transporter uptake, inhibitor, radiometric |  |  | 8000 nM |
| CC1=C(/C=C/C(C)=C/C=C/C(C)=C/C=O)C(C)(C)CCC1 | Cyclic nucleotide-gated channel alpha-1 (CNGA1, Bos taurus, UniProt Q00194) | cGMP-activated current, inhibitor, inside-out patch clamp |  | +100 mV, added: cGMP 10 to 15 µM (~7.4% activation) | 20 nM |
| O=C(COc1ccc2ccccc2c1)N[C@@H](Cc1cn(CCNC(=O)c2ccc(S[C@@H]3O[C@H](CO)[C@H](O)[C@H](O)[C@H]3O)cc2)nn1)C(=O)NCCO | PA-I galactophilic lectin (lecA, Pseudomonas aeruginosa, UniProt Q05097) | ligand displacement, FP |  |  | 67700 nM |
| C[C@]12CC[C@@H]3c4ccc(OS(N)(=O)=O)cc4CC[C@H]3[C@@H]1[C@H](OCCC#N)CC2=O | 17-beta-hydroxysteroid dehydrogenase type 1 (HSD17B1, Homo sapiens, UniProt P14061) | enzyme activity, inhibitor, radiometric |  |  | 4000 nM |
| CC(C)NC(=O)[C@H](CCc1ccccc1)NC(=O)[C@H](CC(=O)NCC(C)(C)C)NC(=O)CCc1ccccc1 | Proteasome component C5/PSMB8 (Homo sapiens, UniProt P20618+P28062) | inhibitor |  |  | 200 nM |

A few entries again:
| Structure (SMILES) | target | assay | system | conditions | IC50 |
| --- | --- | --- | --- | --- | --- |
| CC(C)[C@H](NC(=O)c1ccc2ccccc2n1)C(=O)N[C@@H](CC(=O)O)C(=O)N[C@H](C(=O)N[C@@H](C)C(=O)NC(CC(=O)O)C(=O)COc1c(F)cccc1F)C(C)C (some centres unmarked) | Caspase-2 (Homo sapiens, UniProt P42575) | enzyme activity, inhibitor, absorbance |  |  | ~7.4 nM |
